Results pooled from the literature.
Numbered parts are unrelated; each lists some results of a single study.

Set 1
Target: Interferon regulatory factor 5, full length, phosphomimetic (IRF5, Homo sapiens, UniProt Q13568-2, residues 1-514, S451D/S453D/S456D/S462D)
Technique: protein-binding microarray
Molecule type: double-stranded DNA, one strand shown
Medium: in vitro
Concentration: 940 nM top
Setting: 60-bp whole probe
Added: salmon DNA 0.4 mg/ml
Reference: random background probes
Direction: higher = stronger binding
All sequences stand within: GCCTAGCAC … GTGCTAGGTCTTGATTCGCTTGACGCTGCTG
`GACGGTATCGGTTTCAGGAC`: “fitted relative affinity” 8.3 z-score.
Under “fitted relative affinity”, `TCAGGTATCCTTTTCCTTTA` is recorded as 0.64 z-score.
Under “fitted relative affinity”, `TTAGATATCAGTTTCCATTA` is recorded as 1.38 z-score.
For `TTAGGTTTCGGTCTCGGTTT`, “fitted relative affinity” read 15.7 z-score.
`TTCACTCTCTGCTTGTATCT`: “fitted relative affinity” 2.39 z-score.

Set 2
Target: Prothrombin, mature alpha-thrombin (F2, Homo sapiens, UniProt P00734)
Technique: aptamer microarray, sandwich
Molecule type: DNA with 2'F-ANA
Medium: in vitro
Concentration: 200 nM
Setting: whole 15-mer aptamer, many near background
Added: Cy3 exosite-II aptamer, 400 nM
Direction: higher = stronger binding
Under “mean fluorescence intensity”, `GGTTGGTGTGGTTGG (2'F-ANA at 1 2 4 7 8 10 11 12)` is recorded as 55.4 a.u.
Under “mean fluorescence intensity”, `GGTTGGTGTGGTTGG (2'F-ANA at 1 2 4 6 9 10 11 13 14)` is recorded as 48 a.u.
Under “mean fluorescence intensity”, `GGTTGGTGTGGTTGG (2'F-ANA at 1 2 4 5 7 8 12 14 15)` is recorded as 49.8 a.u.
Under “mean fluorescence intensity”, `GGTTGGTGTGGTTGG (2'F-ANA at 2 4 6 7 10 13 14)` is recorded as 61.9 a.u.

Set 3
Target: RNA binding protein fox-1 homolog 2, RRM domain, GST-SBP tag (RBFOX2, Homo sapiens, UniProt O43251-10, residues 100-194)
Technique: RNA Bind-n-Seq
Molecule type: RNA
Medium: in vitro
Concentration: 365 nM
Setting: natural RNA segment, single round, ends assumed
Reference: no-protein control
Direction: higher = stronger binding
For `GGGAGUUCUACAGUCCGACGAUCAGCAUGCUGCGCAGACACUGGCAUAGCAUGCCCUGGGUACACUAACACUCACCUGCUCCCUUUCGUUCCGCUUGUCUUGGCAGUUGACAAGACAUUCGUUUGCUUUAGUGUGGAAUUCUCGGGUGCCAA`, “RBNS enrichment (R)” read 0.423.
For `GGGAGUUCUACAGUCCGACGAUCCAUUUCUUCUCAUCCCCUGCUUGGCUUCUCUGCAUGUGGUCAUCUGCUAUGGCCUGGUGUGUAAUGGGUUAAACAAUAAGCCACUGCCUGACACCCACAUCCACUUUAGCUGGAAUUCUCGGGUGCCAA`, “RBNS enrichment (R)” read 3.96.
`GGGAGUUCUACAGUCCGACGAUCCAGCCCCACAUCCACAUUCUGUUAGAAUGUAGCUCAGGGAGCUUCGUGGACGGCCUUGCUUGCUGUAGCGUUGUAGGGGCCCUGCCUGCACUGCGGUUGUCCACGGUCACUGGAAUUCUCGGGUGCCAA`: “RBNS enrichment (R)” 0.49.
`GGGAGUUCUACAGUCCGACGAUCCAUCUAGUUAUCAUAAGAAAUAAUUUAAAAGGUUUUGUUGCUGAAAGCAGUAAGUGGUGCAGUAAAAUACUUAAGUUAUUCAAAGAAUGUUAUCUUUCUUGCAAGAGUAAUGGAAUUCUCGGGUGCCAA`: “RBNS enrichment (R)” 0.487.
`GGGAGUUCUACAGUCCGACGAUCGGGCCUUUGAAAUAUAGGUAUGCACCUGAGGUUGGGGGAGGGUCUGCACUCCCAAACCCCAGCGCAGUGUCCUUUCCCUGCUGCCGACAGGAACCUGGGGCUGAACAGGUUGGAAUUCUCGGGUGCCAA`: “RBNS enrichment (R)” 0.52.
Under “RBNS enrichment (R)”, `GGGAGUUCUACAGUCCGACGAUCCCCCCACAAAGUUAUUUAAAAGAUGCCCUAGCAGCAAUCCACCAGUUUUUCUAAGCUAGAACCUUUGAGUCCCCCAAACUGCCUGAAGACUUAAGUUUUGUGGGCACUGGUGGAAUUCUCGGGUGCCAA` is recorded as 0.888.

Other studies, line by line
For `PhoQ, residues 284 288 289 292 302 303 AEGLLW`, the fold induction was 1.61 (PhoP, residues 12 14 15 18 19 LHSVW (Escherichia coli, UniProt P23836); Sort-seq, refers to: YFP reporter; E. coli; PhoQ-PhoP variant library, added: 10 µM Mg2+; reference: high Mg2+ state, higher = stronger signaling).

Excerpt of the above (set 3):
Under “RBNS enrichment (R)”, `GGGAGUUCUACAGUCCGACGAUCCCCCCACAAAGUUAUUUAAAAGAUGCCCUAGCAGCAAUCCACCAGUUUUUCUAAGCUAGAACCUUUGAGUCCCCCAAACUGCCUGAAGACUUAAGUUUUGUGGGCACUGGUGGAAUUCUCGGGUGCCAA` is recorded as 0.888.
`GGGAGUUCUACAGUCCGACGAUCCAUCUAGUUAUCAUAAGAAAUAAUUUAAAAGGUUUUGUUGCUGAAAGCAGUAAGUGGUGCAGUAAAAUACUUAAGUUAUUCAAAGAAUGUUAUCUUUCUUGCAAGAGUAAUGGAAUUCUCGGGUGCCAA`: “RBNS enrichment (R)” 0.487.
